Literature values, collected from citations in different studies.
Lines come from different studies, so protocols differ. Numbers after ± are the reported error. In brackets after ≈: the same amount, converted by molar mass.

CCCCC1(C2CCCC2)Cc2cc(OCCCC(=O)O)c(Cl)c(Cl)c2C1=O (centres unmarked)
logP: 6.8

RYSIFFDY
IC50 (HLA class I histocompatibility antigen, B alpha chain, allele B*39:01 (Homo sapiens, UniProt P01889); peptide-MHC binding; peptide): > 5 µM

COc1ccc([C@@H]2CC(=O)c3c(cc(O)c(CC=C(C)C)c3O)O2)cc1
IC50 (HeLa; cell growth): ~10 µM

O=C(O)c1cccc(C(=O)O)n1
Ki (dapA (Escherichia coli K-12, UniProt P0A6L2); uncompetitive inhibitor; with: (S)-ASA): 18000 ± 2000 µM

CN(C(=O)n1cnc(-c2ccc[n+]([O-])c2)c1)C1CCCCC1
NOAEL (monkeys; 13 weeks repeated daily dosing): 75 mg/kg/day

CC[C@H](C)[C@H](NC(=O)[C@H](CCCCN)NC(=O)[C@H](CCCCN)NC(=O)[C@H](CC(C)C)NC(=O)[C@H](CCCCN)NC(=O)[C@H](CCCCN)NC(=O)[C@H](Cc1ccccc1)NC(=O)[C@H](Cc1ccccc1)NC(=O)[C@H](CCCNC(=N)N)NC(=O)[C@H](CCCNC(=N)N)NC(=O)[C@@H](NC(=O)[C@H](CCCCN)NC(=O)[C@H](CCCNC(=N)N)NC(=O)[C@@H](NC(=O)[C@@H](N)Cc1ccc(O)cc1)[C@@H](C)CC)[C@@H](C)CC)C(=O)N[C@@H](CC(C)C)C(=O)N[C@@H](CCCCN)C(=O)N[C@@H](CCCCN)C(N)=O
MIC (Staphylococcus aureus; MRSA; range over): 3.33 to 26.6 µM (≈ 8.01 to 64.1 µg/mL)

CN(C)c1ccc2c(-c3ccc(C(=O)O)cc3C(=O)[O-])c3ccc(N(C)C)cc3[o+]c2c1
pKa (refers to: carboxyl groups): < 5

CCCCCCCCCCCCCCCCOCCCOP(=O)(O)CO[C@H](C)Cn1cnc2c(N)ncnc21.N
liver extraction fraction (rats; oral): 86%
